Assay results from different studies.
Lines come from different studies, so protocols differ.
PFF0160c: Dihydroorotate dehydrogenase (quinone), mitochondrial (PFF0160c, Plasmodium falciparum, UniProt Q08210)
UniProt Q08210, sequence (whole entry, looked up): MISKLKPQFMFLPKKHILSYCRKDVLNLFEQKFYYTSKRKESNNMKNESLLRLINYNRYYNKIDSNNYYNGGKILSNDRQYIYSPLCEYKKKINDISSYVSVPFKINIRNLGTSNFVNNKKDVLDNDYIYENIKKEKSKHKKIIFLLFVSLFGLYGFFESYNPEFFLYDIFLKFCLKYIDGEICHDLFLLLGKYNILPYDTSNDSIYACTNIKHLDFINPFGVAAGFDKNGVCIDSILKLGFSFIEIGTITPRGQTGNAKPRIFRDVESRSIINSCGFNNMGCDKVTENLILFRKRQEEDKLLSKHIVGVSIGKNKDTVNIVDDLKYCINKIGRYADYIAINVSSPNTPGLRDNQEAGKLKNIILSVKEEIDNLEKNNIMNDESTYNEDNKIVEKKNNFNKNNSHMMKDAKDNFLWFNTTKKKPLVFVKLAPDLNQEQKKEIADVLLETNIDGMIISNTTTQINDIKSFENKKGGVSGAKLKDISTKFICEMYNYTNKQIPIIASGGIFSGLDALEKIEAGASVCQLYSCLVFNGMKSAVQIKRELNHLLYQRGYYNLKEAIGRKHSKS
UniProt O75795, sequence (whole entry, looked up): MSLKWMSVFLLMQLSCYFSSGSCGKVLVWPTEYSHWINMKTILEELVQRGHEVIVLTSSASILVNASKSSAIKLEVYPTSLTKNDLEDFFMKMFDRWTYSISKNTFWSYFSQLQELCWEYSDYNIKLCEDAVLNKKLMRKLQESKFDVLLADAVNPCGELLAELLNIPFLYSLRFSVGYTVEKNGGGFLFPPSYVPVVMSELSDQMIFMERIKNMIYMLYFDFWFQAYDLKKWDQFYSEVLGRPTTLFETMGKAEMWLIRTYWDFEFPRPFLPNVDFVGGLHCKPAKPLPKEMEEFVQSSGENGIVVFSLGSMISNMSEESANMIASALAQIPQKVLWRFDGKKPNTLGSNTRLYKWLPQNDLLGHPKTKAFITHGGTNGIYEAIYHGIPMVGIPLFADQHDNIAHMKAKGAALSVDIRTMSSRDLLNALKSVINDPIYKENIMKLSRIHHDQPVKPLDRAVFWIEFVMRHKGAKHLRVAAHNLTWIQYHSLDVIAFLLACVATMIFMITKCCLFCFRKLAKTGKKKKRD
UniProt P02769, sequence (whole entry, looked up): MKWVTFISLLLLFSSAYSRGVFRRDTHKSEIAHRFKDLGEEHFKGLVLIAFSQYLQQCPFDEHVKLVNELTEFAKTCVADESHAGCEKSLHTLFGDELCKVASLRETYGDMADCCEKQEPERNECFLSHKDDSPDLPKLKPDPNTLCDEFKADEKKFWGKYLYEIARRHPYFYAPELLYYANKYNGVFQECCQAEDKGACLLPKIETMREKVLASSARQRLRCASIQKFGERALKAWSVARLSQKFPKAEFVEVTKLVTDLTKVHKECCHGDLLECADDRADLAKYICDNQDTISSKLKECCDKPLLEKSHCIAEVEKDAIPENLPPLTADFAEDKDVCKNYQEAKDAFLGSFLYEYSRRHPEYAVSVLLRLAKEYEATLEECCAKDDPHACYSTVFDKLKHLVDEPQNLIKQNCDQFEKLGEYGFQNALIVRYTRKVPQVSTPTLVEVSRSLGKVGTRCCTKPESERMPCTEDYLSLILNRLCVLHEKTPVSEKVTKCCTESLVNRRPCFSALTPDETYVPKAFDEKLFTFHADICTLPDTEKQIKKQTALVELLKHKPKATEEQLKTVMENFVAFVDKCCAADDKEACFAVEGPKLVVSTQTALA
UniProt Q8TCC7, sequence (whole entry, looked up): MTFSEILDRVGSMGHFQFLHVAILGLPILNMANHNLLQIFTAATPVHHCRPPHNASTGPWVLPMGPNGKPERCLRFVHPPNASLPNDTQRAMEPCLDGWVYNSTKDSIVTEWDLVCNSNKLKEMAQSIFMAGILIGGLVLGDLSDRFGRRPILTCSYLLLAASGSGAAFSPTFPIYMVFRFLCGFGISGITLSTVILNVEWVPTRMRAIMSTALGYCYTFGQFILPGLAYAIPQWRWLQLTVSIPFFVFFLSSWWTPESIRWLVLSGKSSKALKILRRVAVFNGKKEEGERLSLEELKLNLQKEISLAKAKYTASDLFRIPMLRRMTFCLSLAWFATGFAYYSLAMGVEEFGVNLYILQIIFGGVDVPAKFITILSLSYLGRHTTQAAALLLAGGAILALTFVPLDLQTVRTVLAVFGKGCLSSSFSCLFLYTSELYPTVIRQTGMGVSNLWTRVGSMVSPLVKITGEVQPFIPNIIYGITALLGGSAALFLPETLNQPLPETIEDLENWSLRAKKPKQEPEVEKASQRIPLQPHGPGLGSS
UniProt Q12809, sequence (whole entry, looked up): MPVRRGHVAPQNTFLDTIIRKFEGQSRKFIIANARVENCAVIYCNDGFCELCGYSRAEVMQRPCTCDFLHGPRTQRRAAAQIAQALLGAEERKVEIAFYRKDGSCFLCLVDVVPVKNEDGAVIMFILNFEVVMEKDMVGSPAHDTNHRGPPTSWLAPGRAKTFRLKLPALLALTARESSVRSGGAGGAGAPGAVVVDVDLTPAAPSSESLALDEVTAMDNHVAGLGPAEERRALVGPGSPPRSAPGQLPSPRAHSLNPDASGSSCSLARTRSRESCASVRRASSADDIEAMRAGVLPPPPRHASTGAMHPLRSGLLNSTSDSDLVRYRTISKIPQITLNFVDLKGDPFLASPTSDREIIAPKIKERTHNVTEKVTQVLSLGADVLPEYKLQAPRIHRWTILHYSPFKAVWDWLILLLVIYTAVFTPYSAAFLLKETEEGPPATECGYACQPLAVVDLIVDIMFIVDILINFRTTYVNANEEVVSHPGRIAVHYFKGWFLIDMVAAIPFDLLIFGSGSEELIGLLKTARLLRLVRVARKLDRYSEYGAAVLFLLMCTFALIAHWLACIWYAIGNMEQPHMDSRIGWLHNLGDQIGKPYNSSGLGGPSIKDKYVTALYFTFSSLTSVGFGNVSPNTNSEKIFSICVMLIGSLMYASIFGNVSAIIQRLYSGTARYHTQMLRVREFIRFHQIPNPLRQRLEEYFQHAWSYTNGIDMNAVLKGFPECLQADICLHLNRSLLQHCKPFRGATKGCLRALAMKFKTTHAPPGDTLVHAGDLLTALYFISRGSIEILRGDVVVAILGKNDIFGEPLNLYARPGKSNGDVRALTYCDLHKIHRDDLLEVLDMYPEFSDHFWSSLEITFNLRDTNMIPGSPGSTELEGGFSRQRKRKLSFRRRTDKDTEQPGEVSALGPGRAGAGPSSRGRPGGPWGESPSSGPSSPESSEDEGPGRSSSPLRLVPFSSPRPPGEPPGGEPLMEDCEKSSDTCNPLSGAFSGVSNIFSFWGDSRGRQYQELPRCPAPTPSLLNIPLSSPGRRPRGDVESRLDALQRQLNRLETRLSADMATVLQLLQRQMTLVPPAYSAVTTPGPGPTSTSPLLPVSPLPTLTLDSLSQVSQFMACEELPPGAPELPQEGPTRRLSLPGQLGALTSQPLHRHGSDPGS
UniProt Q16288, sequence (whole entry, looked up): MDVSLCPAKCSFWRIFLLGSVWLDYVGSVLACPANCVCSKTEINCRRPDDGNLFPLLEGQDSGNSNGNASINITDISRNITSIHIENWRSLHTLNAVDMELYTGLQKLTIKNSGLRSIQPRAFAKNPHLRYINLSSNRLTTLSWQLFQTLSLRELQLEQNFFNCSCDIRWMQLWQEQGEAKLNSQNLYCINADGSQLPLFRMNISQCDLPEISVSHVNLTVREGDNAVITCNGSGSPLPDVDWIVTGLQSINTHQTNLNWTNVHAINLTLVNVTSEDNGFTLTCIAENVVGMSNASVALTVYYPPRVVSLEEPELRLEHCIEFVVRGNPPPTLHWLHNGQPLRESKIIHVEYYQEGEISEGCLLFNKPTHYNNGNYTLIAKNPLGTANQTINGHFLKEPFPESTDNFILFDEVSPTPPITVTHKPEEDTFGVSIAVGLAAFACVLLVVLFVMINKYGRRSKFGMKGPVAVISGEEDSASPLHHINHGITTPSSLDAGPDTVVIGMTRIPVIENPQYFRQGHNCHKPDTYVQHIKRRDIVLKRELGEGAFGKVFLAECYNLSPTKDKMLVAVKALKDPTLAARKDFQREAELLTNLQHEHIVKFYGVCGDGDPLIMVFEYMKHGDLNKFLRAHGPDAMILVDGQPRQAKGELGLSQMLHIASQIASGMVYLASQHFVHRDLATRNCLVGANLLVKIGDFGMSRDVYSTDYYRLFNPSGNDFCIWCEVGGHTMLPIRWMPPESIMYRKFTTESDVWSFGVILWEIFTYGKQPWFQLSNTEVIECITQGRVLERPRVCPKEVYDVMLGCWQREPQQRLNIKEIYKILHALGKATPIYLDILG

For `CC(C)C[C@H](NC(=O)[C@H](Cc1ccccc1)NC(=O)[C@H](Cc1ccccc1)NC(=O)Cc1ccc(-c2ccccc2)cc1)C(=O)N[C@@H](CCCCN)C(=O)N[C@@H](CCCNC(=N)N)C(=O)N[C@H](C(=O)N[C@@H](Cc1c[nH]c2ccccc12)C(=O)N[C@@H](CCCCN)C(=O)N[C@@H](CCCNC(=N)N)C(=O)O)C(C)C`, the compound remaining was 13.3% (metabolic stability, mass spectrometry; human, liver microsomes; 1 h).
The CC50 of `Cn1cc2c3c1C(=O)C(N)=CC3=NCC2` is reported as 2 µM (HEK293; cell growth or viability, MTT; 72 h).
With `Cc1ncc2n1-c1ccc(Cl)cc1C(c1ccccc1F)=NC2` the fraction unbound was 1 (human, hepatocytes; 4 h, pH 7.4).
`COc1ccc([C@@]23Oc4cc(OC)cc(OC)c4[C@@]24NC(C)=N[C@@]4(O)[C@H](C(=O)N(C)OC)[C@H]3c2ccccc2)cc1` has a microsomal CLint of 11.6 µL/min/mg (metabolic stability; human, liver microsomes).
For `Nc1c2c(nc3c1C(c1ccc(Cl)c(Cl)c1)c1ccc(OCC(=O)c4ccccc4)cc1O3)CCCC2` (centres unmarked), the viability was 36.5% (SH-SY5Y; cell growth or viability, MTT; 100 µM).
For `C[N+]1=C2C=C(N/C=C/c3ccc(O)cc3)C(=O)c3[nH]cc(c32)CC1`, the CC50 was 5 µM (HEK293; cell growth or viability, MTT; 72 h).
The CC50 of `CCN(CC)CCCC(C)Nc1ccnc2cc(Cl)ccc12` (centres unmarked) is reported as over 100 µM (HEK-293T; cell growth or viability, CCK-8; 48 h).
`CC[C@H](C)[C@H](NC(=O)CN)C(=O)NCC(=O)N[C@@H](C)C(=O)N[C@H](C(=O)N[C@@H](CC(C)C)C(=O)N[C@@H](CCCCN)C(=O)N[C@H](C(=O)N[C@@H](CC(C)C)C(=O)N[C@H](C(=O)N[C@H](C(=O)NCC(=O)N[C@@H](CC(C)C)C(=O)N1CCC[C@H]1C(=O)N[C@@H](C)C(=O)N[C@@H](CC(C)C)C(=O)N[C@H](C(=O)N[C@@H](CO)C(=O)N[C@@H](Cc1c[nH]c2ccccc12)C(=O)N[C@H](C(=O)N[C@@H](CCCCN)C(=O)N[C@@H](CCCNC(=N)N)C(=O)N[C@@H](CCCCN)C(=O)N[C@@H](CCCNC(=N)N)C(=O)N[C@@H](CCC(N)=O)C(=O)N[C@@H](CCC(N)=O)C(N)=O)[C@@H](C)CC)[C@@H](C)CC)[C@@H](C)O)[C@@H](C)O)C(C)C)C(C)C` gave a compound remaining of about 60% (chemical stability, HPLC; human, serum; 300 µM, 4 h).
For `O=C(O)c1cn(Cc2ccc(F)cc2)c2ccccc12`, the Km was 104 µM (UGT2B17 (Homo sapiens, UniProt O75795); enzyme activity, substrate).
For `COc1cc(-c2[o+]c3cc(O)cc(O)c3cc2O[C@@H]2O[C@H](CO)[C@@H](O)[C@H](O)[C@H]2O)cc(OC)c1O`, the Kd was 395 µM (Albumin (ALB, Bos taurus, UniProt P02769); binding, absorbance; pH 7).
The Cmax of `C[C@]12CC[C@H]3[C@@H](CC=C4CC(O)CC[C@@]43CO)[C@@H]1CCC2O` (some centres unmarked) is reported as 6960 ng/mL (rat, plasma; intraperitoneal, 20 mg/kg).
`CC(C)CC(=O)OC[C@H]1O[C@@](C#N)(c2ccc3c(N)ncnn23)[C@H](O)[C@@H]1O` has an inhibition of under 50% (KCNH2 (Homo sapiens, UniProt Q12809); ion current, inhibitor, patch clamp; HEK293; 30 µM).
With `CCCCCCCCCCOc1cc2c(O)c(C(=O)OCC)cnc2cc1OCC` the IC50 was over 12.5 µM (BaF3; cell growth or viability, ATP luminescence; 72 h).
For `COc1ccc([C@@]23Oc4cc(OC)cc(OC)c4[C@@]24N=C(C2CC2)N[C@@]4(O)[C@H](C(=O)N(C)OC)[C@H]3c2ccccc2)cc1`, the microsomal CLint was 75.9 µL/min/mg (metabolic stability; human, liver microsomes; 1 µM, pH 7.4).
`Cn1cc2c3c1C(=O)C(N)=CC3=[N+](C)CC2` gave a CC50 of 1 µM (HEK293; cell growth or viability, MTT; 72 h).
With `[2H]c1c([2H])c([C@]2([2H])CCCN2C(=O)C(C)(C)Oc2ccc3cn[nH]c3c2)c([2H])c([2H])c1C([2H])([2H])[2H]` the remaining binding was 75% (NTRK3 (Homo sapiens, UniProt Q16288); binding, competition with immobilised ligand; 1 µM).
`O=C(O)C(F)(F)C(F)(F)C(F)(F)C(F)(F)C(F)(F)C(F)(F)C(F)(F)F` gave a Km of 88.4 µM (SLC22A8 (Homo sapiens, UniProt Q8TCC7); transporter uptake, substrate; HEK293; 2.5 min, pH 7.4).
`Nc1c2c(nc3c1C(c1ccc(Cl)c(Cl)c1)c1ccc(OCC(=O)c4ccc(Cl)cc4)cc1O3)CCCC2` (centres unmarked) gave a viability of 45.1% (SH-SY5Y; cell growth or viability, MTT; 100 µM).
The IC50 of `COc1ccc(Cl)c2c1NC(=O)C2NC(C)=O` (centres unmarked) is reported as over 10 µM (PFF0160c; enzyme activity, inhibitor, absorbance).
With `CC[C@H](C)CCCCC(=O)N[C@@H](CCN)C(=O)N[C@H](C(=O)N[C@@H](CCN)C(=O)N[C@H]1CCNC(=O)[C@H]([C@@H](C)O)NC(=O)[C@H](CCN)NC(=O)[C@H](CCN)NC(=O)[C@H](CC(C)C)NC(=O)[C@@H](CC(C)C)NC(=O)[C@H](CCN)NC1=O)[C@@H](C)O` the bioavailability was 90% (male Sprague-Dawley rat, plasma; subcutaneous, 10 mg/kg).
The viability of `Nc1c2c(nc3c1C(c1cccc([N+](=O)[O-])c1)c1ccc(OCC(=O)c4ccc(Cl)cc4)cc1O3)CCCC2` (centres unmarked) is reported as 89.5% (SH-SY5Y; cell growth or viability, MTT; 0.4 µM).
The tracer uptake of `[18FH]` is reported as 0.13 %ID/g (mouse, brain; intravenous, 1 h).
With `Nc1c2c(nc3c1C(c1cccc([N+](=O)[O-])c1)c1ccc(OS(=O)(=O)c4ccc(F)cc4)cc1O3)CCCC2` (centres unmarked) the viability was 79% (SH-SY5Y; cell growth or viability, MTT; 1.6 µM).
For `CCCn1c(O)nnc1SCC(=O)Nc1cc(Cl)ccc1Cl`, the IC50 was 1.53 µM (PFF0160c; enzyme activity, inhibitor, absorbance).
With `O=C1CC[C@H](N2Cc3c(ccc4c3OCC43CCN(C[C@@H]4CCC5(CCN(c6ccc([C@@H]7c8ccc(O)cc8CC[C@@H]7c7ccccc7)cc6)CC5)OC4)CC3)C2=O)C(=O)N1` the clearance was 2.1 mL/min/kg (beagle dog, plasma; intravenous, 1 mg/kg).
With `Cc1ccc(S(=O)(=O)Oc2ccc3c(c2)Oc2nc4c(c(N)c2C3c2ccc(Cl)c(Cl)c2)CCCC4)cc1` (centres unmarked) the viability was 58.2% (SH-SY5Y; cell growth or viability, MTT; 25 µM).
`CCOC(=O)c1c(NC(=O)CNC(C)C)sc2c1CCCCC2` has a concentration of 379 ng/g (male mouse, brain; intraperitoneal, 5 mg/kg, 30 min).
`COc1ccc(S(=O)(=O)Oc2ccc3c(c2)Oc2nc4c(c(N)c2C3c2cccc(OC)c2)CCCC4)cc1` (centres unmarked) has a viability of 98.1% (SH-SY5Y; cell growth or viability, MTT; 0.4 µM).
`Cc1cccc(C)c1NC(=O)C1CCCCN1` (centres unmarked) has an inhibition of 23.4% (SCN5A (Homo sapiens, UniProt Q14524); ion current, inhibitor, patch clamp; 100 µM).

Excerpt of the above:
For `O=C(O)c1cn(Cc2ccc(F)cc2)c2ccccc12`, the Km was 104 µM (UGT2B17 (Homo sapiens, UniProt O75795); enzyme activity, substrate).
For `COc1cc(-c2[o+]c3cc(O)cc(O)c3cc2O[C@@H]2O[C@H](CO)[C@@H](O)[C@H](O)[C@H]2O)cc(OC)c1O`, the Kd was 395 µM (Albumin (ALB, Bos taurus, UniProt P02769); binding, absorbance; pH 7).
